Measured values collected from several papers.
Each line is one published result; not all experiments were run side by side.
JAK3 JH1: Tyrosine-protein kinase JAK3, JH1 (JAK3, Homo sapiens, UniProt P52333)
UniProt P52333, sequence (whole entry, looked up): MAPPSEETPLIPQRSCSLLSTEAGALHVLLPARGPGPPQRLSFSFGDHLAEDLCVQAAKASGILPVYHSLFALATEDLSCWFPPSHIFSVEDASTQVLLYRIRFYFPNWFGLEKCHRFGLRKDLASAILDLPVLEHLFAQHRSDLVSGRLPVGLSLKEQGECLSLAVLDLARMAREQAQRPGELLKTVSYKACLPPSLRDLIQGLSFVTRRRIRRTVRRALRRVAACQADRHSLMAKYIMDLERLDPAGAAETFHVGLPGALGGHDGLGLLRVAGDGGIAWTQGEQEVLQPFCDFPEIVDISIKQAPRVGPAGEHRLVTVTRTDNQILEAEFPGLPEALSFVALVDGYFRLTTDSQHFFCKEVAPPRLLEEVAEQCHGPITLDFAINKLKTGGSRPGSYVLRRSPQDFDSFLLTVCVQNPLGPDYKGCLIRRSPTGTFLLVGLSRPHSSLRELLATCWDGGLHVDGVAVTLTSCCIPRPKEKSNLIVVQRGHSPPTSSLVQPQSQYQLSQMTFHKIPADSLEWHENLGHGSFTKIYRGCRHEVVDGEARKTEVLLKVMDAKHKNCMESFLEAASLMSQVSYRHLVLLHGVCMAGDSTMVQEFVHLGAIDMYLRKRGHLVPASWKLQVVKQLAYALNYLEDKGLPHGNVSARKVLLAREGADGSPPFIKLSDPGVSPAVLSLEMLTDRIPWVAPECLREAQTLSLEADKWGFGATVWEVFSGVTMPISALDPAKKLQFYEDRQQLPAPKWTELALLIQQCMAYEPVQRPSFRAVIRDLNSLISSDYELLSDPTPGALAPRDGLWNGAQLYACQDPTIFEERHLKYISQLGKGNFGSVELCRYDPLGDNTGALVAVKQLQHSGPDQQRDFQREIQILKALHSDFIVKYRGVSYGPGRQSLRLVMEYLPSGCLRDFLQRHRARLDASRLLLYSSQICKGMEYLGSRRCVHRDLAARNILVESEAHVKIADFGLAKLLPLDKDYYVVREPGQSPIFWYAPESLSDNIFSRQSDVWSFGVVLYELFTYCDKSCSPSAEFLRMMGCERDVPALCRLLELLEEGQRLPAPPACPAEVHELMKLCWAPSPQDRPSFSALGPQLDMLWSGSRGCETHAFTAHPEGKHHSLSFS
JAK3: Tyrosine-protein kinase JAK3 (JAK3, Homo sapiens, UniProt P52333)

| Compound | target | assay | conditions | how to read | endpoint | value |
| --- | --- | --- | --- | --- | --- | --- |
| O=C(N[C@@H]1c2ccccc2C[C@H]1N1CCCC1)c1ccc(-c2ccnc3[nH]ccc23)nc1 | JAK3 JH1 | binding, competition with immobilised ligand | 3 µM |  | remaining binding | 0% |
| O=C1NC(=O)c2c1c1cc(F)c[n+]3c1c1c2c2cc(O)ccc2[n]1[Ru-4]312([N]=C=S)[S+]3CC[S+]1CC[S+]2CC3 (stereo not drawn) | JAK3 | enzyme activity | 100 nM, human enzyme, added: 10 µM ATP | relative to: untreated | remaining activity | 61% |
| C[C@H](NCc1ccc(-c2ccc(C(F)(F)F)cc2)cc1)C(N)=O | JAK3 JH1 | cell-free assay, competition with immobilised ligand | 1 µM |  | inhibition | 10% |
| N[C@H](C(=O)N1CCCC1)C1CCN(c2nccc3c(-c4ncc(Cl)cc4Cl)cccc23)CC1 | JAK3 | kinase activity, inhibitor | 10 µM, added: ATP 1 mM |  | inhibition | 5.2% |
| Nc1ccc(/C=C/C(=O)N2CCc3c(oc4c(-c5ccc(F)cc5)cc(-c5ccc(C(=O)N6CCC(F)(F)CC6)cn5)cc34)C2)cn1 | JAK3 JH1 | binding, competition with immobilised ligand | 1 µM |  | remaining binding | 83% |
| CC(C)[C@H]1NC(=O)C[C@H]2/C=C/CCSSC[C@@H](NC1=O)C(=O)N[C@H](Cc1cccc3ccccc13)C(=O)NCC(=O)O2 | JAK3 | enzyme activity, inhibitor | 10 µM |  | inhibition | 0.6% |
| CCOC(=O)[C@@H]1Cc2c(cc([N+](=O)[O-])cc2[N+](=O)[O-])[C@H](O)[C@]12C(=O)Nc1ccc(Br)cc12 | JAK3 | binding, competition with immobilised ligand | 0.1 µM |  | remaining binding | 46% |
| CN(C)[C@H]1C[C@@]23CC[C@@]4(O2)C(=CC[C@]2(C)[C@@H](c5ccc6ccncc6c5)CC[C@H]24)C=C3[C@@H](O)[C@@H]1O | Tyrosine-protein kinase JAK3, JH2 pseudokinase domain (JAK3, Homo sapiens, UniProt P52333) | ATP probe labelling, inhibitor, KiNativ profiling | 1 µM |  | inhibition | 6.4% |
| CS(C)(=O)=Nc1ccc(-c2ccc(-c3nc4cc(O[C@@H]5CO[C@H]6[C@@H]5OC[C@H]6O)[nH]c4cc3F)cc2)cc1 | JAK3 | enzyme activity, inhibitor | 10 µM |  | inhibition | 14% |

A few entries again:
| Compound | target | assay | conditions | how to read | endpoint | value |
| --- | --- | --- | --- | --- | --- | --- |
| CN(C)[C@H]1C[C@@]23CC[C@@]4(O2)C(=CC[C@]2(C)[C@@H](c5ccc6ccncc6c5)CC[C@H]24)C=C3[C@@H](O)[C@@H]1O | Tyrosine-protein kinase JAK3, JH2 pseudokinase domain (JAK3, Homo sapiens, UniProt P52333) | ATP probe labelling, inhibitor, KiNativ profiling | 1 µM |  | inhibition | 6.4% |
